Measurements of several laboratories.
Lines come from different studies, so protocols differ. ± gives the spread as reported.

| Molecule | assay | system | setting | how to read | quantity | value |
| --- | --- | --- | --- | --- | --- | --- |
| CC1(C)C=Cc2c(ccc3c2OC[C@@H](c2ccc(O)cc2O)C3)O1 | glucuronidation, measured: M1 plus M2 formation | cynomolgus monkey liver microsomes | pH 7.4 |  | total intrinsic clearance | 20 µL/min/mg |
| C/C=C(/C)C(=O)O[C@H]1C(C)=C[C@]23C(=O)[C@@H](C=C(CO)[C@@H](O)[C@]12O)[C@H]1[C@@H](C[C@H]3C)C1(C)C |  | phosphate buffer 30% acetonitrile | 100 µM, 24 h, pH 7.4, 37 °C |  | remaining compound | ~44% |
| CC(=O)N[C@@H](CCCNC(=N)N)C(=O)N[C@H](C(=O)N[C@@H](CC(=O)O)C(=O)N[C@H](C(=O)N[C@@H](CCCNC(=N)N)C(=O)N[C@H](C(=O)N[C@@H](CC(=O)O)C(=O)N[C@H](C(N)=O)C(C)C)C(C)C)C(C)C)C(C)C | rotational rheometry | 1% w/v aqueous solution | shear rate range 1-1000 s^-1 |  | viscosity | 458 ± 20.9 Pa·s |
| C=CC(=O)N1CCC([C@@H]2CCNc3c(C(N)=O)c(-c4ccc(Oc5ccccc5)cc4)nn32)CC1 |  | Chinese patients, plasma | oral, 160 mg twice daily, week 2 day 1, steady state |  | AUC(0-8h) | 631 ng·h/mL |
| des-acyl ghrelin (human) |  | mouse, Ghsr knockout, thalamus | intravenous, 10 min |  | brain/serum ratio | 6.89 µL/g |
| liraglutide | equilibrium dialysis | human plasma pooled | 10 nM, pH 7.4, 37 °C |  | plasma protein binding | 99.7% |
| O=C(CCCCCCC(=O)Nc1ccccc1)NO |  | patients, serum | oral, 800 mg, cycle -1, alone |  | AUC(0-7 h) | 13.9 µM·h |
| acyl ghrelin (human) | multiple-time regression | Ghsr knockout mice, whole brain | intravenous, dose not given |  | initial brain distribution volume | 1.48 ± 0.55 µL/g |
| NC(=O)CN[C@H]1CCCNC1 | capillary electrophoresis-MS | water |  |  | pKa1 | 5.21 |
| CCCCc1nc(Cl)c(CO)n1Cc1ccc(-c2ccccc2-c2nn[nH]n2)cc1 | rapid equilibrium dialysis | pooled human plasma | 4 h, with: cassette with erlotinib, Flx |  | fraction unbound | 0.01 |
| CNCc1ccc(-c2cc(-c3nc(-c4ccc(S(=O)(=O)C(C)C)cc4)cnc3N)on2)cc1 |  | mouse BALB/c female, plasma | intravenous, 60 mg/kg, from AUC(0-360) |  | CL | 64.6 mL/min/kg |
| CC1=C2C[C@H]3[C@@H](CC[C@@H]4C[C@H](NS(C)(=O)=O)CC[C@@]43C)[C@@H]2CC[C@@]2(C1)O[C@@H]1C[C@H](C)CN[C@H]1[C@H]2C |  | patients, plasma | oral, 180 mg daily, day 22, cycle 1 |  | Tmax | 5 h |
| Cc1nc2cccc(OCC(C)(C)C(=O)NC(C)C)c2c(N)c1C(=O)O |  | Sprague-Dawley rat, male, plasma | oral gavage, 30 mg/kg, day 1 |  | Cmax | 90 ± 23.9 ng/mL |
| TWPKHFDKHTFYSILKLGKH-OH (C-acid) |  | peptide, male C57BL/6J mouse, brain | intravenous, 60 min, vascular blood washed out | baseline: injected dose | brain uptake | 0.042 ± 0.017% |
| CC1(C)Oc2cc3oc(=O)ccc3cc2C[C@@H]1O |  | male CD-1 mouse, plasma | oral gavage, 80 mg/kg daily, 4 weeks |  | plasma BUN level | 9.7 ± 1.8 mg/dL |
| CCN1CC(=O)NC(CC(C)C)C(=O)N(C)C(C)C(=O)NC(CC(C)C)C(=O)N2CCCC2C(=O)N(CC2CCOCC2)CC(=O)NC(CC(C)C)C(=O)N(C)C(C)C(=O)NC(C)C(=O)N2CCCC2C1=O (centres unmarked) |  | mouse | oral, dose not given, with: GF120918 pretreatment |  | oral bioavailability | 4% |
| O=C(c1cccnc1-c1ccncc1)N1CCC(O)(Cc2ccccc2)CC1 |  | healthy human, plasma | oral, 100 mg once daily, day 1 |  | tmax | 0.42 h |
| Cn1ncc(Cl)c1-c1cc(C(=O)N[C@H](CN)Cc2ccc(F)c(F)c2)oc1Cl |  | human patients, plasma | oral, 20 mg once daily, day 8, repeat dose |  | effective half-life | 84.7 h |
| O=C1N=C(N2CCOCC2)CN1c1ccc(Cl)cc1 |  | beagle dog, both sexes, plasma | oral, 30 mg/kg twice daily, day 5, tablets, after 4 days dosing |  | terminal half-life | 1.66 h |

| Molecule | assay | system | setting | how to read | quantity | value |
| --- | --- | --- | --- | --- | --- | --- |
| O=C(O)[C@H](c1ccccc1Cl)N1CCc2sccc2C1 | HPLC-MS/MS | feline citrate plasma | 72 h, -20 °C, storage stability |  | deviation from nominal | 8% |
| C[C@]12CC[C@@H]3c4ccc(O)cc4CC[C@H]3[C@@H]1C[C@@H](O)[C@@H]2O | GC-MS | breast cancer women on NSAI, serum | vaginal, 0.03 mg daily, 1 h, day 28 |  | minimum serum concentration | 0 ng/mL |
| CNCc1ccc(-c2[nH]c3cc(F)cc4c3c2CCNC4=O)cc1 |  | human patients, plasma | oral, 40 mg once daily, day 15, 24 h, steady state, arithmetic mean |  | AUC(0-t) | 1810 ng·h/mL |
| O=C(c1cc(Cc2n[nH]c(=O)c3ccccc23)ccc1F)N1CCN(C(=O)C2CC2)CC1 |  | cancer patients | oral, 100 mg twice daily, day 2, with: pegylated liposomal doxorubicin |  | AUC(0-10 h) | 9400 ± 3000 ng·h/mL |
| CC[C@H](C)[C@@H]1NC(=O)[C@H](Cc2ccc(O)cc2)NC(=O)[C@@H](N)CSSC[C@@H](C(=O)N2CCC[C@H]2C(=O)N[C@@H](CC(C)C)C(=O)NCC(N)=O)NC(=O)[C@H](CC(N)=O)NC(=O)[C@H](CCC(N)=O)NC1=O | ELISA | C57BL/6J male mice, wild type, plasma | intraperitoneal, 12 µg total, total area from zero |  | AUC(0-t) | 18000 ± 987 pg·30 min/sample |
| CN1CCN(c2ccc(Nc3ncc4cc(C#N)c(=O)n(C5CCCC5)c4n3)cc2)CC1 |  | NIH Swiss nude mice, intracerebral U87 tumour, plasma | intravenous, 25 mg/kg, with: gefitinib 200 mg/kg oral 1 h before |  | clearance | 65.6 mL/min/kg |
| Cn1c(-c2ccc(C(N)=O)cc2F)nnc1C(C)(C)Oc1c(F)cc(Cl)cc1F |  | young non-Japanese subjects, plasma | oral, 20 mg single dose, day 1 |  | Cmax mean | 232 ng/mL |
| C/C=C1\NC(=O)[C@H]2CSSCC/C=C/[C@H](CC(=O)N[C@H](C(C)C)C(=O)N2)OC(=O)[C@H](C(C)C)NC1=O |  | advanced cancer patients, plasma | intravenous, 14 mg/m^2, geometric mean, with: rifampin 600 mg |  | volume of distribution (Vz) | 77.6 L |
| C[C@H](O)c1cc(C(=O)N[C@@H](C)Cn2ccc(-c3ccc(C#N)c(Cl)c3)n2)n[nH]1 |  | human | oral, 600 mg twice daily, with food |  | effective half-life | 15.3 h |
| Cc1cc(Nc2ncc(Cl)c(Nc3ccccc3S(=O)(=O)C(C)C)n2)c(OC(C)C)cc1C1CCNCC1 | measured: unbound drug | patients, plasma | oral, 750 or 450 mg/day, 23.7 h, geometric mean |  | Css,min | 10 nM |
| CC(C)NC(=O)COc1cccc(-c2nc(Nc3ccc4[nH]ncc4c3)c3ccccc3n2)c1 |  | male C57BL/6 mouse, brain | oral, 100 mg/kg, one-compartment model |  | half-life | 2.12 h |
| CC(C)NC[C@@H](C(=O)N1CCN(c2ncnc3c2[C@H](C)C[C@H]3O)CC1)c1ccc(Cl)cc1 |  | human, Healthy hepatic function, plasma | oral, 100 mg single dose, NCI classification, geometric mean |  | apparent clearance | 297 L/h |
| CC(C)[C@H](NC(=O)[C@@H]1CCCN1C(=O)[C@H](CCCNC(=N)N)NC(=O)[C@H](CS)NC(=O)[C@H](Cc1c[nH]c2ccccc12)NC(=O)[C@H](CCCNC(=N)N)NC(=O)[C@@H](Cc1ccccc1)NC(=O)[C@H](Cc1c[nH]cn1)NC(=O)[C@H](CCC(=O)O)NC(=O)[C@H](CS)NC(=O)[C@H](CS)NC(=O)[C@H](CCCCN)NC(=O)[C@@H]1CC(=O)N[C@@H](CCCNC(=N)N)C(=O)N[C@@H](C(C)C)C(=O)N[C@@H](CC(=O)O)C(=O)N[C@H](Cc2ccc(O)cc2)C(=O)N1)C(N)=O [technetium-99m labelled] |  | C57 mouse, female, B16/F1 melanoma, muscle | intravenous, 2 h, with: NDP-MSH 10 µg co-injected |  | tissue uptake | 0.03 ± 0.02 %ID/g |
| N=C(N)c1ccc(CNC(=O)[C@@H]2CCN2C(=O)[C@H](NCC(=O)O)C2CCCCC2)cc1 |  | Wistar rats male, plasma | intravenous, 0.1 mg/kg, 15 min, 10 min after TF |  | plasma concentration | 200 ± 25.8 ng/mL |
| CCCCC1(CCCC)CN(c2ccccc2)c2cc(SC)c(OCC(=O)N[C@@H](C(=O)NCC(=O)O)c3ccccc3)cc2S(=O)(=O)C1 |  | human, plasma | oral, 10 mg once daily, day 1, geometric mean |  | AUC(0-t) | 1.13 ng·h/mL |
| CCCOc1ccc([C@H]2CNC(=O)N2c2ccc3[nH]cnc3c2)cc1 |  | elderly human volunteers fasted, plasma | oral capsule, 300 mg twice daily, day 7, geometric mean |  | apparent terminal half-life | 6.28 h |
| Cc1cc(Nc2cc3ncccc3c(N[C@@H]3C[C@H]4CC[C@@H](C3)N4CCC#N)n2)n[nH]1 |  | Sprague-Dawley rat, male, plasma | oral, 100 mg/kg/day, last day of 4 weeks |  | Cmax | 9.96 ng/mL |
| CCCC[C@@H]1NC(=O)[C@@H](NC(=O)[C@H](CCC(=O)O)NC(=O)CNC(=O)CN2CCN(CC(=O)O)CCN(CC(=O)O)CCN(CC(=O)O)CC2)CCCCNC(=O)C[C@@H](C(N)=O)NC(=O)[C@H](C(C)C)NC(=O)[C@@H]2CCCN2C(=O)[C@H](CCCNC(=N)N)NC(=O)CNC(=O)[C@H](Cc2c[nH]c3ccccc23)NC(=O)[C@H](CCCNC(=N)N)NC(=O)[C@@H](Cc2ccccc2)NC(=O)[C@H](Cc2c[nH]cn2)NC(=O)[C@H](CCC(=O)O)NC1=O [indium-111 labelled] |  | normal C57 mice, blood | intravenous, 0.037 MBq, 4 h |  | tissue uptake | 0.02 ± 0.02 %ID/g |
| Cc1c(C(=O)c2ccccc2)c(N)c(-c2ccccc2)n1Cc1ccc(Cl)cc1 |  | mouse, brain | intraperitoneal, 20 mg/kg |  | brain level | not detected |

Repeated from above:
| Molecule | assay | system | setting | how to read | quantity | value |
| --- | --- | --- | --- | --- | --- | --- |
| Cn1ncc(Cl)c1-c1cc(C(=O)N[C@H](CN)Cc2ccc(F)c(F)c2)oc1Cl |  | human patients, plasma | oral, 20 mg once daily, day 8, repeat dose |  | effective half-life | 84.7 h |
| CC(C)NC[C@@H](C(=O)N1CCN(c2ncnc3c2[C@H](C)C[C@H]3O)CC1)c1ccc(Cl)cc1 |  | human, Healthy hepatic function, plasma | oral, 100 mg single dose, NCI classification, geometric mean |  | apparent clearance | 297 L/h |
| Cc1cc(Nc2cc3ncccc3c(N[C@@H]3C[C@H]4CC[C@@H](C3)N4CCC#N)n2)n[nH]1 |  | Sprague-Dawley rat, male, plasma | oral, 100 mg/kg/day, last day of 4 weeks |  | Cmax | 9.96 ng/mL |
| liraglutide | equilibrium dialysis | human plasma pooled | 10 nM, pH 7.4, 37 °C |  | plasma protein binding | 99.7% |
| CCN1CC(=O)NC(CC(C)C)C(=O)N(C)C(C)C(=O)NC(CC(C)C)C(=O)N2CCCC2C(=O)N(CC2CCOCC2)CC(=O)NC(CC(C)C)C(=O)N(C)C(C)C(=O)NC(C)C(=O)N2CCCC2C1=O (centres unmarked) |  | mouse | oral, dose not given, with: GF120918 pretreatment |  | oral bioavailability | 4% |
| C/C=C1\NC(=O)[C@H]2CSSCC/C=C/[C@H](CC(=O)N[C@H](C(C)C)C(=O)N2)OC(=O)[C@H](C(C)C)NC1=O |  | advanced cancer patients, plasma | intravenous, 14 mg/m^2, geometric mean, with: rifampin 600 mg |  | volume of distribution (Vz) | 77.6 L |
